Published values of several laboratories.
± marks the error that the study gave.
CDC25B: M-phase inducer phosphatase 2 (CDC25B, Homo sapiens, UniProt P30305)
Chain of UniProt P30305 (whole entry, looked up): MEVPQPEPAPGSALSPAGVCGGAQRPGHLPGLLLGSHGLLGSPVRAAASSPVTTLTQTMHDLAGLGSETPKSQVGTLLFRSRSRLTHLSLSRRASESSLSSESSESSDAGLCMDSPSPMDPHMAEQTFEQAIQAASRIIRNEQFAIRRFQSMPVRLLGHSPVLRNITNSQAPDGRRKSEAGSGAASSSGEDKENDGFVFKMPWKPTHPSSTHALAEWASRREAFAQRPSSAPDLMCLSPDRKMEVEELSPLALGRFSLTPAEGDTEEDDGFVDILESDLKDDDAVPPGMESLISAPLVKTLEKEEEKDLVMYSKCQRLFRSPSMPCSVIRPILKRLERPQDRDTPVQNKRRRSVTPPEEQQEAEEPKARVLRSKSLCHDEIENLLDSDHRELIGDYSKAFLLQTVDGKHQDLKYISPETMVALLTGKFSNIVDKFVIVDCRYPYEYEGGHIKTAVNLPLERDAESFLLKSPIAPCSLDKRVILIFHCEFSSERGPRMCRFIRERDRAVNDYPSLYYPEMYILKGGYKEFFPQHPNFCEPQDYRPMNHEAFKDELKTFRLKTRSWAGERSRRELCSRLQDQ
Chain of UniProt O24023 (whole entry, looked up): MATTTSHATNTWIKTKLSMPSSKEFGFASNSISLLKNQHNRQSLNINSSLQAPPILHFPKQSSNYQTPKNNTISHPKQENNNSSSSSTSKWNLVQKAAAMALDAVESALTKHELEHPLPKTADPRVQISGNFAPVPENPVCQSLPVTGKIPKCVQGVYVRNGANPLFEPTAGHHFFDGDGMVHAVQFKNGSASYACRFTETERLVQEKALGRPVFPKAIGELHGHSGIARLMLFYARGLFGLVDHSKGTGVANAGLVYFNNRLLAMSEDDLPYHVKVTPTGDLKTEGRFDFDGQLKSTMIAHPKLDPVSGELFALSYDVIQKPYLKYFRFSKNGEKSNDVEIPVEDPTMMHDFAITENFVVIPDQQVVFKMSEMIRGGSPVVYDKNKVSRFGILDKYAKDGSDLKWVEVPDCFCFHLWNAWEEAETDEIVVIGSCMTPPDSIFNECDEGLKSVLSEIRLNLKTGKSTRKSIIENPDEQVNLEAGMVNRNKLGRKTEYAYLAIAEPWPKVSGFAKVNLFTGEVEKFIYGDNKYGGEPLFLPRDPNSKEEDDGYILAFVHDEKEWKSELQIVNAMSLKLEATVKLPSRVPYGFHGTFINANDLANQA
Chain of UniProt P30530 (whole entry, looked up): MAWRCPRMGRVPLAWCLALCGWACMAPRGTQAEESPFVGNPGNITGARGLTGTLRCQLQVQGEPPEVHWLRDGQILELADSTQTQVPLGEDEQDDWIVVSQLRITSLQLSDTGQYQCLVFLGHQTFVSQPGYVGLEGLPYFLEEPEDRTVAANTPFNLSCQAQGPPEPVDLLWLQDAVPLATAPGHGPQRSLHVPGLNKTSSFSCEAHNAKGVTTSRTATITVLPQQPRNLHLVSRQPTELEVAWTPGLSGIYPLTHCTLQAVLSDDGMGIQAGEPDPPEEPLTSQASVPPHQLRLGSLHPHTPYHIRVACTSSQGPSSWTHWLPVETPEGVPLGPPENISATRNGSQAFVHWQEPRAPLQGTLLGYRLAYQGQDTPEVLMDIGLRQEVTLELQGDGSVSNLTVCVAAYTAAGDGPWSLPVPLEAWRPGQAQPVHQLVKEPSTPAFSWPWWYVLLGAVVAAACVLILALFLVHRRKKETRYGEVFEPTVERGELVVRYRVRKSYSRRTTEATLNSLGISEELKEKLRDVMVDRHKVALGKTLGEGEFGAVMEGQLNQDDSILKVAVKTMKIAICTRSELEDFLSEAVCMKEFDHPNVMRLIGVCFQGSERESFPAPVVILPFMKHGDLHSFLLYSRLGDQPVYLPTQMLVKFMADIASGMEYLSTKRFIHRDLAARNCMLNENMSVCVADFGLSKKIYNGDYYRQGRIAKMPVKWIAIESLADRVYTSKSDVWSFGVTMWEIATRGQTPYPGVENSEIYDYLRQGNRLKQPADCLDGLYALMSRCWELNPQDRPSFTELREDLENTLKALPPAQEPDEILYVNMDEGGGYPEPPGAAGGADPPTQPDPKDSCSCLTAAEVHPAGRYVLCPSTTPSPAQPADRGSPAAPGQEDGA
Chain of UniProt P35462 (whole entry, looked up): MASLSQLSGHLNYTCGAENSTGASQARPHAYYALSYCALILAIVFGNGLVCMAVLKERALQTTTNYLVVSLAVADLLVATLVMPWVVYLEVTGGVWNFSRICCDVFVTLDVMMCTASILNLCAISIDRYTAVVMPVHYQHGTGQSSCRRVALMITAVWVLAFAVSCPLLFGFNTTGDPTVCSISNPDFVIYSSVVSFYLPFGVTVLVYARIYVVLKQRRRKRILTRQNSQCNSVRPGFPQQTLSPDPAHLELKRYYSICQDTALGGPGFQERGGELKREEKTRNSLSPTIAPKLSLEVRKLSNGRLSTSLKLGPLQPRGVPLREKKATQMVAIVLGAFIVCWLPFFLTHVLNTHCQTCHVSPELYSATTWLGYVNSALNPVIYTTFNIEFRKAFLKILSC
Chain of UniProt P09874 (whole entry, looked up): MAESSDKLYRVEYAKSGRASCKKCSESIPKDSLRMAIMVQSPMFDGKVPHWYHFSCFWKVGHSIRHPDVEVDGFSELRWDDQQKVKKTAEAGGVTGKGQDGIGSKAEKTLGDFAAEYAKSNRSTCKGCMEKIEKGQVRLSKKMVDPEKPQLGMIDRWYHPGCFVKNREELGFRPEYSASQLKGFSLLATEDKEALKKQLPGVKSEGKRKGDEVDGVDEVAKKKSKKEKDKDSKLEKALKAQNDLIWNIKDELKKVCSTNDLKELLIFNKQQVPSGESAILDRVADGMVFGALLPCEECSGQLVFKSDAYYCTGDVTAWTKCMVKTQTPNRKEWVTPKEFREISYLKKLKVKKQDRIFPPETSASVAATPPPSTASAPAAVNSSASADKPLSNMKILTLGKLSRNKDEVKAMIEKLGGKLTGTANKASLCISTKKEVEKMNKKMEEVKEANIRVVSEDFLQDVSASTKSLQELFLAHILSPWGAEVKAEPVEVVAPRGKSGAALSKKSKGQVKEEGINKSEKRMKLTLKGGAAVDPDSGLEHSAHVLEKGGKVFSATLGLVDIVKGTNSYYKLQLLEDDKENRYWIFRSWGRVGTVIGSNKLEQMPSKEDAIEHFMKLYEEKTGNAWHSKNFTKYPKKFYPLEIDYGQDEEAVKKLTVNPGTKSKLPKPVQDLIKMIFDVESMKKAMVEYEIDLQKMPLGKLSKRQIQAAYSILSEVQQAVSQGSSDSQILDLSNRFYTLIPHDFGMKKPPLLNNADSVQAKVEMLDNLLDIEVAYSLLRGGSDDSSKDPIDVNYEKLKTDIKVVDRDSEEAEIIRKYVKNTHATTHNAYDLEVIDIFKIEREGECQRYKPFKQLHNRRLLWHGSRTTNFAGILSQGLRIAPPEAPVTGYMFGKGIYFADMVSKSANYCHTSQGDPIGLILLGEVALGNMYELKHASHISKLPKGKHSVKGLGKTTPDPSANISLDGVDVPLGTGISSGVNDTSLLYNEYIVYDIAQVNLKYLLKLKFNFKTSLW
Chain of UniProt P49961 (whole entry, looked up): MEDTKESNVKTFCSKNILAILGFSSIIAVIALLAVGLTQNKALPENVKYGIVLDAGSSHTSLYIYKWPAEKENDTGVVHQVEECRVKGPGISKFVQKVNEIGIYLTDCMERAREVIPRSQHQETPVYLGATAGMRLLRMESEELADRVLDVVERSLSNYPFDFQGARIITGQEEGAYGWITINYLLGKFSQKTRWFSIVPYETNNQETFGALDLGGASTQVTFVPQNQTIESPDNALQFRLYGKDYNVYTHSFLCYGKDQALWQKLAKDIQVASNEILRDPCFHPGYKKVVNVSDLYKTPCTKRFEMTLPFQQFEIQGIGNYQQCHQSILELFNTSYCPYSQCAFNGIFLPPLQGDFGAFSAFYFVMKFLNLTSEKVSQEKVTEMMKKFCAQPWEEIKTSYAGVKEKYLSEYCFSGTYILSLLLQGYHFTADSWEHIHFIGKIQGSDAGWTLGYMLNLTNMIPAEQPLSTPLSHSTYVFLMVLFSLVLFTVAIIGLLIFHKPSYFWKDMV
Chain of UniProt Q07912 (whole entry, looked up): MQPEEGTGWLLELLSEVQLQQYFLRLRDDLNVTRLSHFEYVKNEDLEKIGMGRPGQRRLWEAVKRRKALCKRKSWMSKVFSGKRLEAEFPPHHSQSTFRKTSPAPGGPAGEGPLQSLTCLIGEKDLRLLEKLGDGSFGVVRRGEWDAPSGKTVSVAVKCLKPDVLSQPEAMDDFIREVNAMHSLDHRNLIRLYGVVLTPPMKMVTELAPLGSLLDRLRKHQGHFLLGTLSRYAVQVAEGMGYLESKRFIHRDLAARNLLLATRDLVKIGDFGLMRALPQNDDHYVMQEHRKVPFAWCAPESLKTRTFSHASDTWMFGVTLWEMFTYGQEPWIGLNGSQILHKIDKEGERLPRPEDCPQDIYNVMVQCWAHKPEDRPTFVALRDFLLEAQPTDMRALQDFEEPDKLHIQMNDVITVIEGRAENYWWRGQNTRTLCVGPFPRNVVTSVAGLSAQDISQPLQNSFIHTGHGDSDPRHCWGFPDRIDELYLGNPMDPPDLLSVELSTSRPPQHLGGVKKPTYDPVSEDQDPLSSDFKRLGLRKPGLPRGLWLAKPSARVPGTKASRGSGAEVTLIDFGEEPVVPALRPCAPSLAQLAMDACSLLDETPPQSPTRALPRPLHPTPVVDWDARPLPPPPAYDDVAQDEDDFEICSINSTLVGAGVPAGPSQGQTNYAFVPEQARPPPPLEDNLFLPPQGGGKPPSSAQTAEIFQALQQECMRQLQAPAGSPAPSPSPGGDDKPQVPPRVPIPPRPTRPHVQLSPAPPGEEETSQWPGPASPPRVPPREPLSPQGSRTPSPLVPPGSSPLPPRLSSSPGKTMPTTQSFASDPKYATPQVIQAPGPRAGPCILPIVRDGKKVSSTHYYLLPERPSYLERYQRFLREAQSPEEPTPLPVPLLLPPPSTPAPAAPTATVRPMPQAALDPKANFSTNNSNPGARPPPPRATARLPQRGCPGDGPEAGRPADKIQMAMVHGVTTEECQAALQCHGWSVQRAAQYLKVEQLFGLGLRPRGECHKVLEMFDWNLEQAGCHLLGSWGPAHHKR

SMILES	target	test	system	setting	how to read	inhibition
COc1ccccc1CNC(=O)CCn1c(=O)[nH]c2ccsc2c1=O	Heat shock protein 90, N-terminal domain (Plasmodium falciparum, UniProt Q8IC05)	ligand displacement, FP	–	10 µM	–	69%
O=C(Nc1ccc(Cl)cc1)c1cccc(S(=O)(=O)NC2CC2)c1	Ectonucleoside triphosphate diphosphohydrolase 1 (Homo sapiens, UniProt P49961)	enzyme activity, inhibitor, absorbance	–	100 µM	–	5%
COc1ccc(NS(=O)(=O)c2cccc(/C=C/C(=O)NO)c2)cc1	HDAC6 (Homo sapiens, UniProt Q9UBN7)	enzyme activity, inhibitor, fluorescence	–	5 µM	–	100%
O=C(Nc1ccc(Oc2ncnc3[nH]cc(-c4ccccc4)c23)c(F)c1)c1c2n(n(-c3cc(F)ccc3F)c1=O)CCCC2	AXL (Homo sapiens, UniProt P30530)	enzyme activity, inhibitor, ELISA	–	0.1 µM	–	75.4%
CCOc1c(C(C)(C)O)sc2cnc(Nc3ccc(N4CCC(N5CC6(COC6)C5)CC4)cc3OC)nc12	TNK2 (Homo sapiens, UniProt Q07912)	enzyme activity, inhibitor	–	0.1 µM	–	68%
Cn1cc(-c2ccc3ccccc3c2)c2ccc(Cl)nc21	Gag-Pol polyprotein, integrase (gag-pol, Human immunodeficiency virus type 1 group M subtype B, UniProt P04585)	enzyme activity, inhibitor	–	10 µM	–	55.8%
N#Cc1c(F)c(Cl)c2nc(SCc3ccc4ccccc4c3)nc(N)c2c1F	CDC25B	enzyme activity, inhibitor, fluorescence	–	20 µg/mL	–	94%
O=C(O[C@@H]1Cc2c(O)cc(O)cc2O[C@@H]1c1ccc(O)c(O)c1)c1ccc(O)cc1	Si (Rattus norvegicus, UniProt P23739)	enzyme activity, inhibitor	rat intestinal brush border vesicles	10 µM	–	41.2%
Cc1ccc(Nc2nc(SCc3cn(Cc4ccccc4Cl)nn3)nc(-c3ccc(Br)cc3)c2C#N)cc1	KDM1A (Homo sapiens, UniProt O60341)	enzyme activity, inhibitor, fluorescence	–	1 µM	–	8.4%
N#CCSc1nc(N)c2c(F)c(C#N)c(F)c(F)c2n1	CDC25B	enzyme activity, inhibitor, fluorescence	–	20 µg/mL	–	80.4%
O=c1c(/C=N/NC(=S)N/N=C/c2cc(Cl)ccc2O)coc2ccccc12	potato tyrosinase	inhibitor	–	50 µM, 0 to 20 min, together with: L-DOPA	relative to: control	< 10%
COC(=O)Nc1ccc2c(c1)c(Cc1ccc(C(=O)NS(=O)(=O)c3ccc(C(F)(F)F)cc3)cc1OC)cn2C	Tumor necrosis factor receptor superfamily member 1A (Homo sapiens, UniProt P19438)	NF-κB reporter gene, luciferase reporter	HEK293 cells	up to 250 nM, together with: TNF 10 ng/mL	–	~63%
CCn1c2ccccc2c2cc(CN[C@H]3CC[C@H](NC(=O)c4cc5ccccc5[nH]4)CC3)ccc21	DRD3 (Homo sapiens, UniProt P35462)	cell-free assay, inhibitor	–	10 µM	–	88.9%
COc1ccc(C(=O)N(O)Cc2ccccc2)cc1	9-cis-epoxycarotenoid dioxygenase NCED1, chloroplastic (NCED1, Solanum lycopersicum, UniProt O24023)	enzyme activity	Escherichia coli extract	100 µM, together with: 9′-cis-neoxanthin	–	no inhibition
O=C1N[C@@H](CO)C[C@@H](O)c2ccccc21 (relative stereo)	PARP1 (Homo sapiens, UniProt P09874)	enzyme activity, inhibitor	–	10 µM	–	0%
COc1cc(C(=O)NC2CCC(N3CCN(CC4CCC5(CCCC5)C4)CC3)CC2)c(F)cc1Nc1ncc2c(n1)N(C1CCCC1(F)F)CC(F)(F)C(=O)N2C (centres unmarked)	PLK5 (human)	binding, LanthaScreen kinase binding	–	10 µM	–	0.48 ± 0.02%
N#Cc1c(F)c(F)c2nc(SCc3ccc(Cl)c(Cl)c3)nc(N)c2c1F	CDC25B	enzyme activity, inhibitor, fluorescence	–	20 µg/mL	–	99.6%

Excerpt of the above:
SMILES	target	test	system	setting	how to read	inhibition
N#CCSc1nc(N)c2c(F)c(C#N)c(F)c(F)c2n1	CDC25B	enzyme activity, inhibitor, fluorescence	–	20 µg/mL	–	80.4%
O=c1c(/C=N/NC(=S)N/N=C/c2cc(Cl)ccc2O)coc2ccccc12	potato tyrosinase	inhibitor	–	50 µM, 0 to 20 min, together with: L-DOPA	relative to: control	< 10%
